Measured values collected from several papers.
Numbered parts are unrelated; each lists some results of a single study. Substitutions count along the parent as printed.

Series 1
Target: RING finger protein unkempt homolog, zinc fingers 1-6, GST-SBP tag (UNK, Homo sapiens, UniProt Q9C0B0, residues 30-357)
Method: RNA Bind-n-Seq
Molecule type: RNA
Sample: in vitro
Tested at: not given
Notes: RNA with constant flanks, human-mouse chimeric sites, ends assumed
Reference: input RNA pool
Reading: higher = stronger binding
Shared flanks, not repeated: GGGAGUUCUACAGUCCGACGAUC … CAACAGAGGAUUGAGCAUCA
Construct (chain): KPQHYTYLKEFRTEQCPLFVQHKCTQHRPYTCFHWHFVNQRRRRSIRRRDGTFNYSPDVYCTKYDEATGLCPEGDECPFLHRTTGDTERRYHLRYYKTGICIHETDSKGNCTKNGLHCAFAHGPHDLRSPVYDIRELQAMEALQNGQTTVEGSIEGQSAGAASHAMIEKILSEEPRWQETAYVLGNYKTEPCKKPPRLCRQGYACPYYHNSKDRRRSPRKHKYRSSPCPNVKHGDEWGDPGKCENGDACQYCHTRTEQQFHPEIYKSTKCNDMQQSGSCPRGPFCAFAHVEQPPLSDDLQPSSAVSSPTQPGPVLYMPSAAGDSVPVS
Oligonucleotide | bound/input enrichment [ratio]
CUGGCCUGGCCCUCCCCAGGGGCCUCCUUCUCUGCAUUCACUGCUUCUGCAUCAGAUACUUUCAGCUCCAAGUCCUGACUGGGUGGGGCACCCAUUUCAGGCAGAAGGUUUUGGUACCCU | 0.377
UCAAGGGGGCACUGCAGAGCCAUGCCUUUCCUUGACAUACAGAAAAAGCUGGGCAUCAGCCUGGACCGGCACUUUAUAAUCCAGAGUGCAGAACAGCCCUAUAAGAACGCCGCUCGGUGC | 0.0923
CCCUCCCCGGGCCACCCACCCCUCCCGGCUCCCCGCCGAGAUCCAGGUUUCUUCUUAUUUCAUAGCAAGCCAGAACAAUGUUCUACGCACAUUUUGUCCUCAGUAAAAGAGGGCCUCUGG | 1.65
AGAGAUAAAGCAUCUAGGAACAUGCGAGGCUCCCGGAUGAAUGGGUUGCCUAGCCCCACUCACAGCGCCCACUGUAGCUUCUACCGAACCAGAACCUUGCAGGCAUUGAGUAAUGAGAAG | 0.17
AAAGAGAAACUAAAGCAACUAAUAGAGGAAGAGGAUUGCAAAGAGAAUUUCAUAGAGAAACUAGGAUUUAUUAGCAAACAUGAGUUAUAUUCCAGAGGCAUCUCAGAACCCCAGCCAAAC | 11
GACUUUGGGACUGGUCCUCGUAAUGCAGCCUUCUAUAGCCCUCAUGGACAUAUAUUAGUAUUAGCUGGAUUUGGAAAUCUUCGAGGACAAAUGGAAGUAUGGGAUGUUAAAAACUACAAG | 0.972
GUGACUGGUGUUAAGAUUUCCCCUCAGCAAAGAAGUGCAGUAGUCACCAUAAUUCCAUCUGUGGUGAAUGCCAAUCAGAUAAAAGAGCUGGUCCCAGACCUCAGUUUAGACAUGGGAACU | 0.263
UCAUUUUUCUCUUUUCUUUCUUUCCUUUAGGAAAAGCCUAAAGAUUAGUAAGAAAAGAAAACAGAAGCCAUGUUUCGAAGACCUGUGUUACAGGUAUUUCGUCAGUUUGUAAGACAUGAG | 0.177

Series 2
Target: Histone acetyltransferase KAT6A, winged helix 1, GST fusion (KAT6A, Homo sapiens, UniProt Q92794, residues 1-85)
Method: protein binding microarray
Molecule type: double-stranded DNA, one strand shown
Sample: in vitro
Tested at: not given
Notes: 8-mer, flanks averaged, mean of 2 arrays, mostly near background
Reference: not given
Reading: higher = stronger binding
Target sequence (chain): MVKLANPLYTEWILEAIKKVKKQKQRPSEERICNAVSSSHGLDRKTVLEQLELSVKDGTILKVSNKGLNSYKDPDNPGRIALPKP
Oligonucleotide | E-score
ATGGTGTG | -0.331
GTGTGATA | -0.131
CAAGTGAC | -0.202
CAGTCAGC | 0.0576
ATTGATTC | 0.091
AACCATGC | 0.0107
AGGCTATC | -0.0422
ACCATCCA | -0.165
GTTACCGA | 0.167
CAGAATCC | -0.0399
AAGTGCGT | 0.0564
AGGTTCCC | 0.0227
ACCAGGCA | -0.316
CGTCTTCA | 0.00331
GCGTTACC | 0.267
ATGAAGGA | -0.181
ACCACCGC | 0.203
AGGAAAGC | 0.0599
TATGCGCA | 0.333
ATGGTATC | -0.08
CACTCCCG | 0.167
AGTCGGAG | -0.106
CGTACTAG | 0.0535
ACATGGGC | -0.0715
CAATATTG | -0.268

Series 3
Target: Sal-like protein 4, full length isoform B (SALL4, Homo sapiens, UniProt Q9UJQ4-2, residues 1-616)
Method: universal PBM
Molecule type: double-stranded DNA, one strand shown
Sample: in vitro
Tested at: not given
Notes: 8-mer, flanks averaged, mean of replicates
Reading: higher = stronger binding
Oligonucleotide | E-score
CGGAAGTA | -0.062
CCAGACCC | -0.319
ACCGCGAC | -0.188
TATGACGA | 0.256
ATTCCATC | 0.144
CCCGCACA | -0.228
ATGGCATA | 0.205
GCCAGGAA | -0.0561
AGCTCCGG | -0.279
CCCGATGC | -0.355
GCGATTCA | -0.215
GATTTCTA | 0.18
CAAGCTTA | -0.139
GCCCGAGA | -0.222
CACTGGTA | -0.0157
CTCACTGA | -0.221
AAGTGTCT | 0.0935
CGTACATC | -0.135
GCTAGAGA | -0.107
CCCAGGAA | -0.0682
CCTATTTC | 0.136
ACTCGAGT | 0.0459
GGAACGCA | -0.26
CCCTTAGA | -0.0552
CAAGTATG | 0.226

Series 4
Target: CCND3, cyclin fold, Cln2 fusion (human)
Method: yeast growth competition, sequencing
Sample: yeast
Notes: weak parent motif
Reference: not given
Reading: higher = stronger binding
Parent: E2F8 docking peptide (human); FVPQRKLEVSTED
Substitution | normalised enrichment score
R5A L7A | -0.175
R5K | 0.12
R5K V9L | 0.0531
F1A | 0.111
L7A | 0.117
V9F | -0.116
V2A | 0.0629
K6A | 0.0992
D13A | 0.102
Q4A | -0.0188
R5A | 0.0563

Some of these lines once more (series 3):
Oligonucleotide | E-score
CAAGTATG | 0.226
AGCTCCGG | -0.279
CCCAGGAA | -0.0682
ACTCGAGT | 0.0459
CCCGCACA | -0.228
CGGAAGTA | -0.062
